Literature values as cited in several papers.
Numbers after ± are the reported error.
Cell line: A549

Cc1nc(-c2nc(-c3ccc(NC(=O)Cn4cc(-c5cc([N+](=O)[O-])cc([N+](=O)[O-])c5)nn4)cc3)no2)c(C)o1 has an IC50 of 190 nM.
CSCc1ccccn1.[Cl-].[Cl-].[Ru+2].c1ccc(-c2ccccn2)nc1.c1ccc(-c2ccccn2)nc1 gave an EC50 of over 150000 nM (cell growth; dark 2D monolayer).
CC1(C)CC(=O)C2=C(C1)OC(N)=C(C#N)C2c1ccc(-n2ccnc2)cc1 (stereo not shown) gave an IC50 of 230 ± 120 nM (cell growth).
CC1=C(C)C(=O)OC(C(C)(O)C2CCC3C4CC5OC56C(O)C=CC(=O)C6(C)C4CCC32C)C1 (stereo not shown) gave an IC50 of 700 nM (cell growth).
N#Cc1ccc(-c2csc(N3N=C(c4ccc(N5CCOCC5)cc4)CC3c3ccc(Cl)cc3)n2)cc1 (stereo not shown) gave an IC50 of 10800 nM (cell growth, MTT).
For Cc1nc(-c2nc(-c3ccc(NC(=O)Cn4cc(-c5ccc([N+](=O)[O-])cc5)nn4)cc3)no2)c(C)o1, the IC50 was 790 nM.
CCNc1cc2c(cc1C)C1(c3cc(C)c(NCC)cc3O2)c2ccccc2C(=O)N1N=Cc1ccnc(-c2cc(C)ccn2)c1.Cc1c(C)c(-c2ccc(-c3ccccc3)cc2)[c-](C)c1C.F[P-](F)(F)(F)(F)F.[Cl-].[Ir+3] gave a Pearson coefficient of 0.53 (measured: lysosome colocalisation; concentration not given).
CSCc1ccccn1.[Cl-].[Cl-].[Ru+2].c1ccc(-c2ccnc3c2ccc2c(-c4ccccc4)ccnc23)cc1.c1ccc(-c2ccnc3c2ccc2c(-c4ccccc4)ccnc23)cc1 has an EC50 of 3400 nM (cell growth; dark 2D monolayer).
CCC1=C(O)c2c(oc(-c3ccc4ccccc4c3)cc2=O)C(CC)(CC)C1=O gave an IC50 of 1160 nM (cell growth, SRB).
[Cl-].[Cl-].[Ru+2].c1ccc(-c2ccccn2)nc1.c1ccc(-c2ccccn2)nc1.c1cnc2c(c1)ccc1cccnc12 gave an IC50 of over 100000 nM (light irradiation).
CCC1=C(O)c2c(oc(-c3ccc4cc(OC)ccc4c3)cc2=O)C(CC)(CC)C1=O gave an IC50 of 16800 nM (cell growth, SRB).
For Nc1nc2cc(CC[C@H]3C[C@@H](n4ccc5c(N)ncnc54)[C@H](O)[C@@H]3O)ccc2cc1Br, the IC50 was 0.2 nM (nuclear arginine dimethylation, inhibitor, immunohistochemistry).
With O=C(CSc1nnc(Cn2cc(-c3ccccc3)nn2)o1)Nc1nc(-c2ccc(Br)cc2)cs1 the IC50 was 400 nM (cell proliferation).
CCOC(=O)C1=C(CSC(=S)N(C2CCCCC2)C2CCCCC2)N(C)C(=O)NC1c1ccccc1 (stereo not shown) — result for “late apoptotic cells”: 3.31% (concentration not given; relative to: untreated).
Under “late apoptotic cells increase”, c1ccc(Cn2cc(COc3ccc(-c4nc5ccc(C6=NCCN6)cc5[nH]4)cc3)nn2)cc1 is recorded as 16.4% (concentration not given).
For CCC1=C(O)c2c(oc(-c3cccc4ccccc34)cc2=O)C(CC)(CC)C1=O, the IC50 was 1550 nM (cell growth, SRB).
